Measurements of several laboratories.
Each line is one published result; not all experiments were run side by side. ± gives the spread as reported.

| SMILES | test | test system | setting | how to read | measurement | value |
| --- | --- | --- | --- | --- | --- | --- |
| C=CC(=O)Nc1cc(Nc2nccc(Nc3cc(Cl)c(F)cc3C(C)(C)O)n2)c(OC)cc1N1CC[C@@H](N(C)C)C1 |  | human patients, plasma | oral, 50 mg daily, cycle 2 day 1, geometric mean |  | AUCtau | 1270 ng·h/mL |
| Cc1nc2ccc(OCc3ccc(C(F)(F)F)cc3)cc2[nH]1 |  | male Balb/c mice, kidney | oral, 10 mg/kg, 72 h | baseline: tissue over plasma | tissue/plasma ratio | 4.9 ± 1.6 |
| CCc1nc(C(N)=O)c(Nc2ccc(N3CCC(N4CCN(C)CC4)CC3)c(OC)c2)nc1NC1CCOCC1 |  | Japanese patients, plasma | oral, 20 mg, cycle 1 day 28, multiple doses, mean | baseline: single dose | accumulation ratio (AUC) | 5.57 |
| C=CC(=O)Nc1cc(Nc2nccc(-c3cn(C)c4ccccc34)n2)c(OC)cc1N(C)CCN(C)C | storage stability | human plasma | 30 d, -80 °C, LLOQ level |  | recovery | 95.6% |
| COc1cc(/C=C/C(=O)OC2C(O)CC(O)(C(=O)O)CC2O)ccc1O (stereo not shown) |  | human plasma | median |  | plasma concentration | 10.2 nM |
| O=C(Nc1nc2cccc(-c3ccc(CN4CCS(=O)(=O)CC4)cc3)n2n1)C1CC1 | measured: nausea | human rheumatoid arthritis patients | oral, 300 mg once daily, 4 weeks, regardless of relatedness |  | treatment-emergent adverse events | 5% |
| CSc1ccccc1C(=O)NCCn1cc(C(=O)NCc2cccc(C)n2)c(=O)c2cc3c(cc21)OC(F)(F)O3 |  | Sprague-Dawley rat, male, plasma | intravenous, 20 mg/kg of parent drug |  | Tmax | 11.4 ± 3 min |
| CC[C@H](C)CCCCC(=O)N[C@@H](CCN)C(=O)N[C@H](C(=O)N[C@@H](CCN)C(=O)N[C@H]1CCNC(=O)[C@H]([C@@H](C)O)NC(=O)[C@H](CCN)NC(=O)[C@H](CCN)NC(=O)[C@H](CC(C)C)NC(=O)[C@@H](Cc2ccccc2)NC(=O)[C@H](CCN)NC1=O)[C@@H](C)O |  | mild renal impairment, plasma | intravenous infusion, 0.75 mg/kg single dose over 1 h, arithmetic mean |  | AUC(0-last) | 20000 ng·h/mL |
| CCc1cc(C(=O)NC)c2nccc(N3CCc4c(cc(Cn5ccnc5)cc4-c4cn(C)nc4C(F)(F)F)C3=O)c2c1 |  | Sprague Dawley rat, male, plasma | oral, 100 mg/kg once daily, 7 days, toxicokinetic satellite group |  | AUC extrapolated fraction | 0% |
| COc1cc2c3cc1Oc1c(OC)c(OC)cc4c1[C@@H](Cc1ccc(O)c(c1)Oc1ccc(cc1)C[C@@H]3N(C)CC2)N(C)CC4 |  | mouse plasma, K3EDTA | 0.5 h, 25-26 °C, room temperature |  | remaining compound | 105% |
| C[C@@H](Oc1ccc(S(C)(=O)=O)cc1C(=O)N1C[C@@H]2C[C@]2(c2cc(C(F)(F)F)on2)C1)C(F)(F)F | LC-MS/MS | young human subjects, plasma | oral, 75 mg twice daily, steady state, multiple doses |  | Vz/F | 383 L |
| COC(=O)c1ccc2c(c1)NC(=O)/C2=C(\Nc1ccc(N(C)C(=O)CN2CCN(C)CC2)cc1)c1ccccc1 |  | healthy volunteers, plasma | oral, 150 mg, with: pirfenidone |  | AUClast geometric LS mean | 167 ng·h/mL |
| Cn1cc(Nc2nc(N)nc(-c3cccc(-n4ccc5cc(C6CC6)cc(F)c5c4=O)c3CO)n2)cn1 |  | healthy humans, fed | oral tablet, 150 mg twice daily (multiple dose), 14 (unit not given) | baseline: subjects | drug-related nausea incidence | 0% |
| CCO[C@H]1CCN(Cc2c(OC)cc(C)c3[nH]ccc23)[C@H](c2ccc(C(=O)O)cc2)C1 |  | PNH patients, active haemolysis | oral, 100 mg, 8 weeks, treatment |  | incidence musculoskeletal chest pain | 14.3% |
| Cc1nc(-c2cnc(NC(C)C)n(C)c2=O)ccc1Oc1ccnc(-c2cnn(C)c2)c1 |  | Beagle dog, male, plasma | oral, 3 mg/kg, crossover study, mean |  | oral bioavailability | 33.3% |
| O=c1c2ccccc2oc2ccccc12 |  | tricaprin-tricaprylin mixture | 45 °C, tricaprin fraction 0.56 |  | solubility | 0.0606 mole fraction |
| CC(C)C[C@H](NC(=O)[C@H](CCc1ccccc1)NC(=O)CN1CCOCC1)C(=O)N[C@@H](Cc1ccccc1)C(=O)N[C@@H](CC(C)C)C(=O)[C@@]1(C)CO1 | population PK, two-compartment model | adult relapsed/refractory DLBCL patients, plasma | intravenous infusion, dose not given, with: R-ICE |  | peripheral volume of distribution | 89.6 L |
| Cc1cc(-c2ccc3cc[nH]c(=O)c3c2)ccc1O[C@H]1O[C@H](CO)[C@@H](O)[C@H](O)[C@@H]1O |  | male Sprague-Dawley rat, plasma | intravenous, 3 mg/kg, group mean |  | AUC(0-all) | 126 ng·h/mL |
| O=c1c(O)c(-c2ccc(O)cc2)oc2cc(O)cc(O)c12 |  | human plasma | mean, both sexes |  | plasma concentration | 102000 nM |
| CCOc1c([C@H](C)n2nc(C)c3c(N)ncnc32)cc(Cl)c(F)c1[C@@H]1CNC(=O)C1 |  | patients, monotherapy | oral, 30 mg once daily, cycle 1 day 15 |  | AUC(0-last) geometric mean | 24.7 µM·h |
| CCn1ccc2c([C@@](O)(CC)c3ccc(C(F)(F)F)nc3)n(C)nc2c1=O |  | rat Sprague-Dawley male, plasma | intravenous, 1 mg/kg |  | CL | 15.3 ± 1.92 mL/min/kg |
| N[C@@H](Cc1ccc(O)c(O)c1)C(=O)O |  | MPTP-lesioned marmoset, dyskinetic | 20 mg/kg |  | duration of peak dyskinesia | 2 h |
| COc1cc(C(=O)NC2CCN(C)CC2)c(F)cc1Nc1ncc(C(F)(F)F)c(Oc2cccc3c2C(=O)N(C)C3)n1 |  | human patients, plasma | oral, 50 mg single dose, geometric mean |  | dose-normalised AUC(0-inf) | 106 nmol·h/L per mg |

| SMILES | test | test system | setting | how to read | measurement | value |
| --- | --- | --- | --- | --- | --- | --- |
| N#Cc1ccc2c(c1)[C@H]1CCCN(C(=O)c3ccc4[nH]cnc4c3)[C@H]1C2 |  | human | 10 mg, day 7 |  | maximum ACTH level | 16.1 pmol/L |
| O=C(O)CCC(=O)O.[2H]C([2H])([2H])Oc1cc(C)c2[nH]ccc2c1CN1CC[C@@H](C2CC2)C[C@H]1c1ccc(C(=O)O)cc1 | multiple ascending dose | healthy Chinese subjects | 300 mg once daily |  | subjects with elevated cholesterol TEAE | 0% |
| O=c1oc2cc(O)ccc2c2cc(O)ccc12 |  | human plasma | mean |  | plasma concentration | 1110 nM |
| Cn1cc([C@H]2C[C@H]3CSC(N)=N[C@@]3(c3ccc(F)cc3F)CO2)cn1 |  | 129/SVE mouse male | subcutaneous, 3 mg/kg, 3 h |  | CSF concentration | 16 nM |
| O=C1OC[C@H](Cc2cccc(O)c2)[C@H]1Cc1cccc(O)c1 |  | human plasma | median, both sexes |  | plasma concentration | 389 nM |
| CC(C)(C(=O)N1CCOc2c(C#N)cncc2C1)C(F)F | measured: medical device site dermatitis | human, both sexes | oral, 20 mg twice daily, 14 days, multiple ascending dose |  | subjects with TEAE | 0% |
| CNc1ccc(-c2nc3ccc(O)cc3s2)cc1 [carbon-11 labelled] | microPET/CT imaging | APP/PS1 mouse, AD model, heart | intravenous, 10 min |  | SUV | 0.911 ± 0.582 |
| CNC(=O)c1ccc(-c2cnc3ncc(Cc4ccc5ncccc5c4)n3n2)cc1F |  | Japanese patients | oral, 400 mg, any grade |  | Amylase increased dose reduction/interruption | 3% |
| COc1ccc([C@@H](O)c2cc(-c3ncnc4cc(N5CCOCC5)ccc34)c(F)cc2Cl)nn1 |  | locally advanced rectal cancer | oral, 50 mg, with: capecitabine and radiotherapy |  | radiation skin injury TEAE | 100% |
| CCn1cc(C(=O)O)c(=O)c2ccc(C)nc21 | starch gel membrane permeability | Gram-negative envelope surrogate | 200 µM, 45 min, pH 7.4 |  | amount permeated | 3.57 nmol |
| OCCc1ccc(O)cc1 |  | human plasma | mean |  | plasma concentration | 2230 nM |
| C=CC(=O)Nc1cc(Nc2nccc(-c3cn(C4CC4)c4ccccc34)n2)c(OC)cc1N(C)CCN(C)C |  | BALB/c nude mouse, LU0387 xenograft, blood | oral, 40 mg/kg |  | P-LCR percentage | 7.8 ± 0.943% |
| COc1cc2c3c(n(CCCN4CCOCC4)c(=O)c2cc1OC)-c1cc2c(cc1C3=O)OCO2 |  | Fischer 344 rats, female | intravenous bolus, 12 mg/m^2 |  | clearance | 29.3 L/h/m² |
| COc1c(C)c2c(c(O[C@@H]3O[C@H](C(=O)O)[C@@H](O)[C@H](O)[C@H]3O)c1C/C=C(\C)CCC(=O)O)C(=O)OC2 |  | healthy subjects, plasma | oral, 1 g mycophenolate mofetil |  | Cmax, mean | 46.9 ng/mL |
| C[C@H](NC(=O)/C(C#N)=C/c1cccc(Br)n1)c1ccccc1 | LC-MS/MS | patients, plasma | oral, 4 mg/kg, cycle 1 day 8 |  | AUC(all) | 64.2 ng·h/mL |
| CCn1c(=O)c(-c2cc(NC(=O)Nc3ccccc3)c(F)cc2Br)cc2cnc(NC)cc21 | measured: investigations | human, moderate hepatic impairment | oral, 50 mg single dose |  | participants with grade ≥ 3 TEAE | 12.5% |
| NC1(C(=O)N[C@@H](CCO)c2ccc(Cl)cc2)CCN(c2nc[nH]c3nccc2-3)CC1 |  | metastatic CRPC patients | 400 mg b.i.d., grade 3 to 4, treatment-related, with: enzalutamide 160 mg daily |  | incidence of Nausea | 0% |
| Cc1ccc([C@@H]2O[C@H](CO)[C@@H](O)[C@H](O)[C@H]2O)cc1Cc1ccc(-c2ccc(F)cc2)s1 |  | Japanese type 2 diabetes patients | 400 mg, day 1, 24 h urine collection | baseline: baseline | urinary potassium excretion change | 3.25 mEq |
| CO[C@@H]1[C@@H](OC(N)=O)[C@@H](O)[C@H](Oc2ccc3c(O)c(NC(=O)c4ccc(O)c(CC=C(C)C)c4)c(=O)oc3c2C)OC1(C)C | starch gel membrane permeability | Gram-negative envelope surrogate | 200 µM, 20 min, pH 7.4 |  | amount permeated | 0.76 nmol |
| OC[C@H]1O[C@@H](c2ccc(Cl)c(Cc3ccc(O[C@H]4CCOC4)cc3)c2)[C@H](O)[C@@H](O)[C@@H]1O |  | Japanese type 1 diabetes patients, blood | 10 mg, day 28 | baseline: baseline | change in Triglycerides | -11.3 mg/dL |
| COc1ccc2[nH]c([S+]([O-])Cc3ncc(C)c(OC)c3C)nc2c1 (stereo not shown) |  | human male, plasma and dried plasma spots | oral, dose not given, 4 h, with: fluvoxamine plus voriconazole | baseline: inhibited over baseline | R/S ratio change | 1.65 |
| C[C@@H]1CCO[C@H]2Cn3cc(C(=O)NCc4ccc(F)cc4F)c(=O)c(O)c3C(=O)N12 |  | human paediatric patients, weight sample C to under sample D kg, plasma | oral, 25 mg film-coated tablet, steady state, geometric mean, population PK post-hoc, N 26 |  | AUC(0-24) | 32500 ng·h/mL |
| CCCCC[C@H](O)CC[C@@H]1[C@H]2Cc3cccc(OCC(=O)O)c3C[C@H]2C[C@H]1O | LC-MS/MS | Japanese PAH patients, plasma | inhaled, 54 µg, no background PAH therapy |  | geometric mean AUC(0-inf) | 0.43 ng·h/mL |

Repeated from above:
| SMILES | test | test system | setting | how to read | measurement | value |
| --- | --- | --- | --- | --- | --- | --- |
| Cn1cc([C@H]2C[C@H]3CSC(N)=N[C@@]3(c3ccc(F)cc3F)CO2)cn1 |  | 129/SVE mouse male | subcutaneous, 3 mg/kg, 3 h |  | CSF concentration | 16 nM |
| CC(C)C[C@H](NC(=O)[C@H](CCc1ccccc1)NC(=O)CN1CCOCC1)C(=O)N[C@@H](Cc1ccccc1)C(=O)N[C@@H](CC(C)C)C(=O)[C@@]1(C)CO1 | population PK, two-compartment model | adult relapsed/refractory DLBCL patients, plasma | intravenous infusion, dose not given, with: R-ICE |  | peripheral volume of distribution | 89.6 L |
| COc1cc2c3c(n(CCCN4CCOCC4)c(=O)c2cc1OC)-c1cc2c(cc1C3=O)OCO2 |  | Fischer 344 rats, female | intravenous bolus, 12 mg/m^2 |  | clearance | 29.3 L/h/m² |
